Assay results gathered from unrelated publications.
Each numbered part is a random draw from the data of one study; scales do not carry over between parts. Substitutions count along the parent as printed.

Block 1
Target: RNA binding protein fox-1 homolog 2, RRM domain, GST-SBP tag (RBFOX2, Homo sapiens, UniProt O43251-10, residues 100-194)
Technique: RNA Bind-n-Seq
Form: RNA
Medium: in vitro
Tested at: 365 nM
Setting: natural RNA segment, single round, ends assumed
Baseline: no-protein control
Reading: higher = stronger binding
Constant ends, left off below: GGGAGUUCUACAGUCCGACGAUC … UGGAAUUCUCGGGUGCCAA
Target sequence (chain): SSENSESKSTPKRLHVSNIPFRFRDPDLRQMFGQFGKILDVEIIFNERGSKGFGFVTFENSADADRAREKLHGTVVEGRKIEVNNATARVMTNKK
Sequence	RBNS enrichment (R)
AGCAAAAAGAAUAUCUUCUAAAGAUUUCUUUAUAUAUUUAAAAACCCACAACUAAAAAUGUAUCCACAUAGUAGUGUUCGUUUGUCGAGAGGAUUUCCUGAGACUGGUUU	0.509
UUUCCAGGUCCCUGCUUCUCACCUCCUCCAUCUUGCUUCGCCUUUCAAUAAACAGUUGAUGCAUACCCCAGCGUGGCUUCCUUUUGAAGUUCUCAACCUGUGGGUCGCGA	0.293
UGAAAACAAAGCAAGAUCAGUGCAGAGAAGCCACAUGACAUGUUGGGUGACAGAUUGGUCAUUUAUUUAAAUAAAGUUAAUACAGAUUAAAUUUGUUUCAAGAGCUAUUG	0.371
AUCCAUGUACUUGUUUGCAAGCAGGACUUUGAGGCAAGUGUGGGCCACUGUGGUGGCAGUGGAGGUGGGGUGUUUGGGAGGCUGCGUGCCAGUCAAGAAGAAAAAGGUUU	0.692
GAAACAAAGAUUUUAAGCCUUCUUCUUUUUUUCUUUUUUCUUUUUUUUUUGAGACCAAGUCUCACUCUGUUGCCCAGGCUGGAGUGCAGUGGCACGAUCUUGGCUUACUG	2.06
GCAUGGCGCCUGCUGGAGGAGGAGAGAGCUCUGCUGGCAUGAGCCACAGUUUCUUGACUGGAGGCCAUCAACCCUCUUGGUUGAGGCCUUGUUCUGAGCCCUGACAUGUG	0.929
UUUACUUGAAGACUGUGAAGUUGCCAUUUUGUCUCAUUGUUUUCUUUGACAUAACUAGGAUCCAUUAUUUCCCCUGAAGGCUUCUUGUUAGAAAAUAGUACAGUUACAAC	0.514
AAGGAUCUAACUGCUUUACAAAUAUUAAACAAGUGCUUGGGCAUGAUUGGGAGAGGAGGCAGCUUAGCUGGAAGCUGUGCCCAUCUUACUGUCACUGGAGAAUAGGAUGU	3.33
UAUGGAAGGGGCCAAGAGGAGCUGCAAGGCAGCCCGGUUAGUGUUCGGGUGAAAUGGCAAGUUGUACAGCCCCCUCGGGCUUGUUUUGUGCUCUCCUGUCACAAAUGCUG	0.679
CCCACUCACGUGCUGUGUGCAUGAGAAGGAGGCCGCUGUGUUCACACUACUGCACCGCACCGCACCCAGAAAGAACUUUCUCCCCAGCGGUGACGACUGCUCCAUGGGGA	1.2
AUCCAAUAGGUGAUGAAAUACAUUUUUUACAAACAUAGAUGCUUUUUAUUUGUAUGUUGAAUGUACAGAUUCAUUUCAAGAAAAGCAUGAAGAUAAUGAAAGCAAAUAUG	1.85
AUAUCUUUUCUUUAGAGAACUGAAAAGAGAGCAGAGAAUAUAACAUGAAAUGAUAGAUUUGACCUCCUCCCUGUUAUUUUCAAGUAGCUGGGAUUUUAAACUAGAUGACC	0.405

Block 2
Target: Ras GTPase-activating protein-binding protein 1, full length (G3BP1, Homo sapiens, UniProt Q13283)
UniProt Q13283, sequence (whole entry, looked up): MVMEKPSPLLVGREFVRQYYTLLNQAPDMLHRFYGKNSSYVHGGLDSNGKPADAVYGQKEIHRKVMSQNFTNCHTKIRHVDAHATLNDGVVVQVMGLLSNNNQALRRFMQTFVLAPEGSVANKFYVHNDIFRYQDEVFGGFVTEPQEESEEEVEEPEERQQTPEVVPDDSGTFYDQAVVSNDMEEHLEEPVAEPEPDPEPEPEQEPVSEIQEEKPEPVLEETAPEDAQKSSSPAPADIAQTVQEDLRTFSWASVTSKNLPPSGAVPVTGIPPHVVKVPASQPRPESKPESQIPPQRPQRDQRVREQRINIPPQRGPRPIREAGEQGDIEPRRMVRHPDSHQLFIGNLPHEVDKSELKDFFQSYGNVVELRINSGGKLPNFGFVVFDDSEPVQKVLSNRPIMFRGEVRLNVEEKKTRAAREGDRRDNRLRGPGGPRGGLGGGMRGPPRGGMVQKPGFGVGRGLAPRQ
Technique: RNA Bind-n-Seq
Form: RNA
Medium: in vitro
Tested at: 200 nM
Setting: whole 134-nt RNA, ends assumed
With: 150 mM LiCl
Baseline: input library
Reading: higher = stronger binding
All molecules: 7-deaza-guanosine replaces G
Constant ends, left off below: GGGAGUUCUACAGUCCGACGAUC … UGGAAUUCUCGGGUGUCAAGG
Sequence	log2 enrichment
AAGUCCUGUGCUACACAUCGUAUGUACCGAAUCGGGGAAAGGGGUUUGGGGAGGGGAAAGUAUUAUGUUACGCCGUUCGGAUCUGCACUU	-0.255
CCUCAAGUCCUGUGCUACACAUCGUAUGUACCGAAUCGGGCGGGGCGGCGGGAAAGUAUUAUGUUACGCCGUUCGGAUCUGCACUUCCAG	0.052
UCCUGUGCUACACAUCGUAUGUACCGAAUCAAACCCCCAAAUUUUUUUAAACCCCCAAAAAAGUAUUAUGUUACGCCGUUCGGAUCUGCA	1.52
GUCCUGUGCUACACAUCGUAUGUACCGAAUCGGGGUUUUUGGGGUGGGGUUUUUGGGGAAAGUAUUAUGUUACGCCGUUCGGAUCUGCAC	0.36
CCUGUGCUACACAUCGUAUGUACCGAAUCGGGGCCCCCCGGCCCCCCGGGGCCCCCCGGGGAAAGUAUUAUGUUACGCCGUUCGGAUCUG	0.102
CAAGUCCUGUGCUACACAUCGUAUGUACCGAAUCGGGAGGGAAAAAAAGGGUGGGAAAGUAUUAUGUUACGCCGUUCGGAUCUGCACUUC	-0.385
UCCUGUGCUACACAUCGUAUGUACCGAAUCGGGGAAAAAAAGGGGAGGGGUUUUUGGGGAAAGUAUUAUGUUACGCCGUUCGGAUCUGCA	0.758
CUGUGCUACACAUCGUAUGUACCGAAUCAAAUUUUUUUAAACCCCCCCAAAUUUUUUUAAAAAAGUAUUAUGUUACGCCGUUCGGAUCUG	0.71
AGUCCUGUGCUACACAUCGUAUGUACCGAAUCAAAUUUAAACCCCCAAAUUUUUAAAAAAGUAUUAUGUUACGCCGUUCGGAUCUGCACU	0.446
GCAGGAAGUAAAAACAAAUGGAAAUGCUUCGGAUAAAAGCAGGGGUGGGGGUUGCUAAGGAAAGGGUGGGAUGGGAGUGGGUAAAGAGUU	0.301
AGUCCUGUGCUACACAUCGUAUGUACCGAAUCGGGAAAGGGAAAGGGAAAAAAAGGGAAAGUAUUAUGUUACGCCGUUCGGAUCUGCACU	-0.218

Block 3
Target: CCNB2, cyclin fold, Cln2 fusion (human)
Technique: yeast growth competition, sequencing
Medium: yeast
Setting: strong parent motif
Baseline: not given
Reading: higher = stronger binding
Starting sequence: BRCA2 docking peptide (human); PSIKRNLLNEFDR
Substitution	normalised enrichment score
K4D	0.495
K4H	1.2
I3G	0.718
I3V	3.26
F11H	0.263
I3H	0.658
D12V	3.3
D12F	0.922
L8M	3.76
R13W	3.84
I3E	1.09
N9L	3.66
P1H	3.78
L7C	0.0298
P1R	3.21
E10P	0.391

Block 4
Target: Centromere-binding protein 1, full length, N-terminal tag (CBF1, Saccharomyces cerevisiae, UniProt P17106, residues 1-351)
UniProt P17106, sequence (whole entry, looked up): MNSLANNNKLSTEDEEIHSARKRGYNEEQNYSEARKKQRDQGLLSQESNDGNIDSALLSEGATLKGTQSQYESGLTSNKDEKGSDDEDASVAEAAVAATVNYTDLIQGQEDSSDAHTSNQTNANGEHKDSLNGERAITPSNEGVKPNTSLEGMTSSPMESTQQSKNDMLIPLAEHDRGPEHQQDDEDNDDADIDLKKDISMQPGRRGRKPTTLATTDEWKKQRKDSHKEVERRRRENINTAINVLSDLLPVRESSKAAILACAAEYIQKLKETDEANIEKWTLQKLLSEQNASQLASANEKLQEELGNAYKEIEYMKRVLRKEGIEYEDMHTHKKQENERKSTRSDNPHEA
Technique: protein-binding microarray
Form: double-stranded DNA, one strand shown
Medium: in vitro
Tested at: 0.8 µM
Setting: whole 60-bp probe, no competitor
Reading: higher = stronger binding
Constant ends, left off below: … GTCTTGATTCGCTTGACGCTGCTG
Sequence	fluorescence intensity
TGTACGAAGCTATAAGGCACGGCTATAGTAGTTAGG	479 a.u.
CTAGCTTATCCCCGCCATCACTTCCCCCCGCCCTTC	511 a.u.
GAATGATCATGAACTCGTGAGGTTAAATTTCGCTAG	650 a.u.
CTATATACTGAAACGCACGTCGCTGATGATTTCTTC	511 a.u.
CCTAACTACTATATCCACATGGTATAGCTTCGTACA	635 a.u.
CTACCACACTGACGGGGTCACGTGTGTTTATTCTTC	18300 a.u.
TGTACGAAGCTATTGCCCGTGTATATAGTAGTTAGG	542 a.u.
CTATAAAGGAACCATGTGATCTTACGTTGATATTTC	3460 a.u.
GAATGTATGTTTTTTAACGTGCATAATTATTAATAG	541 a.u.
CTATTAATTCTCTCTGATGCTGCCAATAGTCATTTC	564 a.u.
CTAATACATACTGCCCTCCTGATTACTTTAAACTTC	551 a.u.
GAATATTCATGCTTGCACGTTATACCTGGCCGGTAG	597 a.u.
TGTACGAAGCTATGTGACACGGTTATAGTAGTTAGG	581 a.u.
GAATGATTTACTGTTATGGTGATGCTATGTTAGTAG	532 a.u.
CTATATACCACTTCACGTGCCACCGAGTAGGTTTTC	3900 a.u.
GAAGGTTCATCGCATGTGGCGCTATAATGCTTTTAG	551 a.u.
CTATTAATTATCTAACGCGTGCTTCGTCCTACTTTC	744 a.u.
CTAGATGATGACGACCACGACAACTGGTGTCATTTC	488 a.u.
GAAAAGTGGGTATCTCACATGGTTTTGATTGGGTAG	632 a.u.
CTAGAAAGTGAAGAGCACGTCCGGAAACACAGCTTC	511 a.u.
GAAGGGTGTAATGATCACGACAGTAAAGTGAGCTAG	996 a.u.
GAAAAAGGGTGCTGAATCGTGATCACGACCCGCTAG	2830 a.u.
CTAAGAAATAATCATATGATGATATAGAAAAGATTC	795 a.u.
CTACTACTTTTTTATCACGTCAAAATTTACTTGTTC	633 a.u.
GAATTTTGGCGAGAACACGCCATGAAATGTCTTTAG	547 a.u.

Block 5
Target: Histone acetyltransferase KAT6A, winged helix 1, GST fusion (KAT6A, Homo sapiens, UniProt Q92794, residues 1-85)
Technique: protein binding microarray
Form: double-stranded DNA, one strand shown
Medium: in vitro
Tested at: not given
Setting: 8-mer, flanks averaged, mean of 2 arrays, mostly near background
Baseline: not given
Reading: higher = stronger binding
Construct (chain): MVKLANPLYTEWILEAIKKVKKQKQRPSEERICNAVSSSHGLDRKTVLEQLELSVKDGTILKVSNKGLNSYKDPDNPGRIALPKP
Sequence	E-score
CGGGCCCA	0.028
CACACGAC	0.0431
AGTCACGG	0.328
CGTTCAGA	0.0386
GGAAGCCA	-0.00351
ATGGGCCA	-0.236
CTCGGCTA	0.171
ACCCCCGA	0.1
GTTTAGCA	-0.0244
ACCGACTC	0.0178
AATTCTGC	-0.0964
CACTCGGA	-0.124
GTGTGTTA	-0.00563
AATTATAG	-0.145
CCGGGAAG	0.25
CAGGCACG	0.00373
AAGAACGC	0.0307
CGTGATGA	-0.169
GTGAGTTA	-0.198
GGCGTTAC	0.133
ATTACGAG	-0.0223
AACTTTAA	0.0102
ATATAAAT	-0.0349
GTGAACCA	-0.0952
TGGTAGAA	-0.134

For quick reference, copied from above (block 2):
Sequence	log2 enrichment
AAGUCCUGUGCUACACAUCGUAUGUACCGAAUCGGGGAAAGGGGUUUGGGGAGGGGAAAGUAUUAUGUUACGCCGUUCGGAUCUGCACUU	-0.255
CCUCAAGUCCUGUGCUACACAUCGUAUGUACCGAAUCGGGCGGGGCGGCGGGAAAGUAUUAUGUUACGCCGUUCGGAUCUGCACUUCCAG	0.052
UCCUGUGCUACACAUCGUAUGUACCGAAUCAAACCCCCAAAUUUUUUUAAACCCCCAAAAAAGUAUUAUGUUACGCCGUUCGGAUCUGCA	1.52
GUCCUGUGCUACACAUCGUAUGUACCGAAUCGGGGUUUUUGGGGUGGGGUUUUUGGGGAAAGUAUUAUGUUACGCCGUUCGGAUCUGCAC	0.36
CCUGUGCUACACAUCGUAUGUACCGAAUCGGGGCCCCCCGGCCCCCCGGGGCCCCCCGGGGAAAGUAUUAUGUUACGCCGUUCGGAUCUG	0.102
CAAGUCCUGUGCUACACAUCGUAUGUACCGAAUCGGGAGGGAAAAAAAGGGUGGGAAAGUAUUAUGUUACGCCGUUCGGAUCUGCACUUC	-0.385
UCCUGUGCUACACAUCGUAUGUACCGAAUCGGGGAAAAAAAGGGGAGGGGUUUUUGGGGAAAGUAUUAUGUUACGCCGUUCGGAUCUGCA	0.758
CUGUGCUACACAUCGUAUGUACCGAAUCAAAUUUUUUUAAACCCCCCCAAAUUUUUUUAAAAAAGUAUUAUGUUACGCCGUUCGGAUCUG	0.71
AGUCCUGUGCUACACAUCGUAUGUACCGAAUCAAAUUUAAACCCCCAAAUUUUUAAAAAAGUAUUAUGUUACGCCGUUCGGAUCUGCACU	0.446
GCAGGAAGUAAAAACAAAUGGAAAUGCUUCGGAUAAAAGCAGGGGUGGGGGUUGCUAAGGAAAGGGUGGGAUGGGAGUGGGUAAAGAGUU	0.301
AGUCCUGUGCUACACAUCGUAUGUACCGAAUCGGGAAAGGGAAAGGGAAAAAAAGGGAAAGUAUUAUGUUACGCCGUUCGGAUCUGCACU	-0.218
